# Experimental data of several laboratories.
# ± marks the error that the study gave.
SMILES,tested on,assay,test system,conditions,scale,measurement,result
CC(C)C[C@H](NC(=O)[C@@H](CCCCNC(=O)CCCCCCCCCCNC(=O)CN1CCN(CC(=O)O)CCN(CC(=O)O)CCN(CC(=O)O)CC1)NC(=O)[C@H](Cc1ccc(O)cc1)NC(=O)[C@H](CO)NC(=O)[C@H](Cc1c[nH]c2ccccc12)NC(=O)[C@H](Cc1cnc[nH]1)NC(=O)[C@@H]1CCC(=O)N1)C(=O)N[C@@H](CCCN=C(N)N)C(=O)N1CCC[C@H]1C(=O)NCC(N)=O [indium-111 labelled],,,"athymic nude mouse, female, intestines","intravenous, 0.037 MBq, 4 h",,tissue uptake,2.07 ± 0.18 %ID
C=CC(=O)Nc1cccc(Cn2ncc3cnc(Nc4cnn(CCOC)c4)nc32)c1,SRC human,"binding, KINOMEscan",,100 nM,lower = stronger binding,percent of control,26%
CCCC[C@H](NC(=O)CCCCCCCNC(=O)CN1CCN(CC(=O)O)CCN(CC(=O)O)CC1)C(=O)N[C@H]1CC(=O)NCCCC[C@@H](C(N)=O)NC(=O)[C@H](Cc2c[nH]c3ccccc23)NC(=O)[C@H](CCCNC(=N)N)NC(=O)[C@@H](Cc2ccccc2)NC(=O)[C@H](Cc2c[nH]cn2)NC1=O [technetium-99m labelled],,,"C57 mouse, bone","intravenous, 0.037 MBq, 24 h",,tissue uptake,0.13 ± 0.08 %ID/g
C=C1CC[C@H](OCCCNC(=O)CCOCCOCCOCCOCCOCCOCCOCCOCCOCCOCCOCCOCCOCCOCCOCCOCCOCCOCCOCCOCCOCCOCCOCCOCCOCCOCCOCCOCCOCCOCCOCCOCCOCCOCCOCCOCCNC(=O)CCN2C(=O)CC(SC[C@H](NC(=O)[C@H](Cc3ccccc3)NC(=O)[C@H](CC(N)=O)NC(=O)[C@H](Cc3c[nH]cn3)NC(=O)[C@@H](NC(=O)[C@H](CC(=O)O)NC(=O)[C@H](CCC(N)=O)NC(=O)[C@H](CC(C)C)NC(=O)[C@H](CCCCN)NC(=O)[C@H](CCCCN)NC(=O)[C@H](CCCNC(=N)N)NC(=O)[C@H](CC(C)C)NC(=O)[C@H](Cc3c[nH]c4ccccc34)NC(=O)[C@H](CCC(=O)O)NC(=O)[C@@H](NC(=O)[C@H](CCCNC(=N)N)NC(=O)[C@H](CCC(=O)O)NC(=O)[C@H](CCSC)NC(=O)[C@H](CO)NC(=O)[C@H](CC(N)=O)NC(=O)[C@H](CC(C)C)NC(=O)[C@H](Cc3c[nH]cn3)NC(=O)[C@H](CCCCN)NC(=O)CNC(=O)[C@H](CC(C)C)NC(=O)[C@H](CC(N)=O)NC(=O)[C@H](Cc3c[nH]cn3)NC(=O)[C@H](CCSC)NC(=O)[C@H](CC(C)C)NC(=O)[C@H](CCC(N)=O)NC(=O)[C@@H](NC(=O)[C@H](CCC(=O)O)NC(=O)[C@H](CO)NC(=O)[C@@H](NC(=O)[C@@H](N)CO)C(C)C)[C@@H](C)CC)C(C)C)C(C)C)C(=O)O)C2=O)C/C1=C/C=C1\CCC[C@]2(C)[C@@H]([C@H](C)CCCC(C)(C)O)CC[C@@H]12 (stereo partly drawn),,,"male cynomolgus monkey, plasma","subcutaneous, 0.02 mg/kg, single dose",,bioavailability,44.8%
C[C@@H](O)[C@@H]1NC(=O)[C@H](CCCCN)NC(=O)[C@@H](Cc2c[nH]c3ccccc23)NC(=O)[C@H](Cc2ccc(O)cc2)NC(=O)[C@@H](NC(=O)[C@@H](Cc2ccccc2)NC(=O)CN2CCN(CC(=O)O)CCN(C(=O)CCNC(=O)c3ncn4c(=O)n(C)nnc34)CCN(CC(=O)O)CC2)CSSC[C@@H](C(=O)N[C@H](CO)[C@@H](C)O)NC1=O [gallium-68 labelled],,ex vivo gamma counting,"mouse, HCT116-WT/SSTR2 xenografts, HCT116-SSTR2 tumour","intravenous, 2 nmol, 1 h",,tissue uptake,5.92 ± 0.82 %ID/g
CC(C)C[C@H](NC(=O)[C@@H](CCCCNC(=O)[C@@H](Cc1ccccc1)NC(=O)CCCCCNC(=O)CN1CCN(CC(=O)O)CCN(CC(=O)O)CCN(CC(=O)O)CC1)NC(=O)[C@H](Cc1ccc(O)cc1)NC(=O)[C@H](CO)NC(=O)[C@H](Cc1c[nH]c2ccccc12)NC(=O)[C@H](Cc1c[nH]cn1)NC(=O)[C@@H]1CCC(=O)N1)C(=O)N[C@@H](CCCNC(=N)N)C(=O)N1CCC[C@H]1C(=O)NCC(N)=O [indium-111 labelled],,,"athymic nude mouse, female, pituitary","intravenous, 0.037 MBq, 1 h",,tissue uptake,33.7 ± 4.53 %ID/g
CCCC[C@H](NC(=O)COCCOCCNC(=O)CN1CCN(CC(=O)O)CCN(CC(=O)O)CC1)C(=O)N[C@H]1CC(=O)NCCCC[C@@H](C(N)=O)NC(=O)[C@H](Cc2c[nH]c3ccccc23)NC(=O)[C@H](CCCNC(=N)N)NC(=O)[C@@H](Cc2ccccc2)NC(=O)[C@H](Cc2c[nH]cn2)NC1=O [technetium-99m labelled],,,"C57 mouse, pancreas","intravenous, 0.037 MBq, 2 h",,tissue uptake,0.06 ± 0.07 %ID/g
Cc1ncsc1-c1ccc(C(C)NC(=O)C2CC(O)CN2C(=O)C(NC(=O)CCCCCCCCCCN2CCCC(Nc3ncc(Cl)c(Nc4ccccc4S(=O)(=O)C(C)C)n3)C2)C(C)(C)C)cc1 (stereo not drawn),22Rv1,"RNA-seq, refers to: ZNF229 mRNA",,concentration not given,reference: DMSO,log2 fold change,-1.04
Cc1cc(-c2ccc(NC(=O)CC[C@H](NC(=O)CN3CCN(CC(=O)O)CCN(CC(=O)O)CCN(CC(=O)O)CC3)C(=O)NCC(=O)N[C@@H](CC(N)=O)C(=O)N[C@H](C(=O)N[C@H](C(=O)N[C@@H](CCCNC(=N)N)C(=O)N[C@@H](CCC(N)=O)C(=O)O)C(C)C)C(C)C)c(C)c2)ccc1/N=N/c1ccc2c(S(=O)(=O)O)cc(S(=O)(=O)O)c(N)c2c1O [copper-64 labelled],,,"nude mouse, 143B xenograft, tumour","intravenous, 48 h",,tissue uptake,6.7 ± 2.9 %ID/g
C[C@@H](O)[C@@H]1NC(=O)[C@H](CCCCN)NC(=O)[C@@H](Cc2c[nH]c3ccccc23)NC(=O)[C@H](Cc2ccc(O)cc2)NC(=O)[C@@H](NC(=O)[C@@H](Cc2ccccc2)NC(=O)CN2CCN(CC(=O)O)CCN(CC(=O)O)CCN(CC(=O)O)CC2)CSSC[C@@H](C(=O)N[C@H](CO)[C@@H](C)O)NC1=O [gallium-67 labelled],,gamma counting,"ICR mice, male, muscle","iv, 11 kBq/mouse, 3 h",,tissue uptake,0.08 ± 0.03 %ID/g
CC(C)C[C@@H](NC(=O)[C@@H](CC(C)C)NC(=O)[C@@H](CC(=O)O)NC(=O)[C@@H](CC(C)C)NC(=O)[C@@H](CC(C)C)NC(=O)[C@@H](CC(C)C)NC(=O)[C@H](NC(=O)[C@@H](CC(=O)O)NC(=O)[C@H](NC(=O)[C@H]1CCCN1C(=O)[C@@H](Cc1ccccc1)NC(=O)[C@@H](CC(C)C)NC(=O)[C@@H](CC(C)C)NC(=O)[C@@H](CC(=O)O)NC(=O)[C@@H](CC(C)C)NC(=O)[C@@H](Cc1ccc(O)cc1)NC(=O)[C@@H](C)NC(=O)[C@@H](CCCNC(=N)N)NC(=O)[C@@H](Cc1c[nH]c2ccccc12)NC(=O)[C@H]1CCCN1C(=O)[C@@H](CC(N)=O)NC(=O)[C@@H](CCC(N)=O)NC(=O)[C@@H](CC(=O)O)NC(=O)[C@@H](CC(=O)O)NC(=O)[C@@H](CSC1CC(=O)N(CCNC(=O)CN2CCN(CC(=O)O)CCN(CC(=O)O)CC2)C1=O)NC(=O)[C@@H](C)N)[C@H](C)O)[C@H](C)O)C(=O)N[C@H](Cc1c[nH]c2ccccc12)C(=O)O (stereo partly drawn) [copper-64 labelled],,,"C57BL/6 mice, female, B16-F10 melanoma, blood","intravenous, 1 h",,tissue uptake,28.4 %ID/g
COC1CN([C@H]2CC[C@H]([C@@]3(C)Oc4c(Cl)cc(C(=O)NCc5c(SC)cc(C)[nH]c5=O)c(C)c4O3)CC2)C1,,"RNA-seq, refers to: SERINC2 mouse homolog","mouse, HT-1376 xenograft, whole blood",dose not given,reference: vehicle,log2 fold change,1.73
